Measured values pooled from the literature.
A part holds a random share of what one study measured.

Series 1
Target: PABPC1L2, full length, GST fusion (mouse, UniProt A0ABA7IW68)
Method: RNAcompete
Molecule type: RNA
Sample: in vitro
Concentration: 20 nM
Setting: 7-mer, probes averaged, single round
Reference: mean of 7-mers
Direction: higher = stronger binding
Measurement: 7-mer Z-score
Residues (chain): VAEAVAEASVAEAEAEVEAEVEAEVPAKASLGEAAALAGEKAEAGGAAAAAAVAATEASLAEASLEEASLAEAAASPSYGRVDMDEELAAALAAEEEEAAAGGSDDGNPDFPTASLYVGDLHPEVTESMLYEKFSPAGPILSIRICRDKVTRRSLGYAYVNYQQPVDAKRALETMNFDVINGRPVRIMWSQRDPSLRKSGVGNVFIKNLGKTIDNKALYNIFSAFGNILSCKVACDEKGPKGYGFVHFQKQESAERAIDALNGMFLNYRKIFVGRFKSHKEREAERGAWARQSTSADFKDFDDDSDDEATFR
AUUCCCU: -0.331
CGUGAUU: -0.157
AUGCUGA: 0.0823
CUACUAC: -0.191
UCACCUG: -0.34
AAUAUGA: 0.367
CCACAGC: -0.122
AUUCGAG: -0.0863
GGCAGAG: 0.329
GCCGUUG: -0.246
CAUAAUC: -0.0264
CCUCUUA: -0.238

Series 2
Target: RNA binding protein fox-1 homolog 2, RRM domain, GST-SBP tag (RBFOX2, Homo sapiens, UniProt O43251-10, residues 100-194)
Method: RNA Bind-n-Seq
Molecule type: RNA
Sample: in vitro
Concentration: 365 nM
Setting: natural RNA segment, single round, ends assumed
Reference: no-protein control
Direction: higher = stronger binding
Measurement: RBNS enrichment (R)
Construct (chain): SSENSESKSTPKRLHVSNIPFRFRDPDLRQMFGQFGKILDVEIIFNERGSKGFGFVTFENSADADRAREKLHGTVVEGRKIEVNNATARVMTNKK
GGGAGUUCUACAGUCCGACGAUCAUUUCUGCUUCAGCCACCAAGCAGUUGUCUGUGUCCCUCAUCCAGAGGGGGCCUUGGCCACCAACAGUUCCAAACCAGGUCAGCUGUUAGCCGUCUCAUUGGCCAGUGGCUGGAAUUCUCGGGUGCCAA: 0.767
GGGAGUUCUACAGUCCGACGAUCUCUUGCCCCUCUGUAAAUCAAGCCAACUGUGACCAUCCAAUGUGCCAUCUUACAGGGAAAAGUUAUAACCACUAUUCCCCUAUAACAUAAUGCUAAUGAUUGUACUUAGUUGGAAUUCUCGGGUGCCAA: 0.266
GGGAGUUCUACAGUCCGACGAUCGGAGGGUUGUGGUUCCUGUCACCUGGGCUGAGGAGCCAGGAAGGCCUAAGCACUUCACUCACACACGCGAGUGGGCGAGUGCGUGUGCCUGUGCACACUUCACACACUGGUGGAAUUCUCGGGUGCCAA: 0.205
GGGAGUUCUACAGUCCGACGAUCGUCACAUGCAUUCUGUGGUGGCCAGCACUACGAAAUGCUACCUUCAAUAAACUGAACCUGCCACUCACUCAGCCUGCCUCUCCAUCCUCACGUGGCCCCGAGGGGAAGGGUGGAAUUCUCGGGUGCCAA: 0.628
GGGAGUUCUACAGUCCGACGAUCUAAGGUUAGAAGCCUGAACCGUUACAAAAGAAGAGCUCACUAUGGUCAAAAAGUGAUGGCUUUCAGGACUUGUUUUUUAUCCUGCCUCACAGUUGUUAAAGUCUGUUCCAUGGAAUUCUCGGGUGCCAA: 0.377
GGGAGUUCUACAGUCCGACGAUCCGUCAGAAGGAAGCCAGUGUGACCACUAACUAAGAUGAAGACACAUGGAAAUGAUGGCACUGGAGGUGGAGGACCUUGCACGCAUACUCUUUGUGACCACAGGGUUGCAGUGGAAUUCUCGGGUGCCAA: 1.24
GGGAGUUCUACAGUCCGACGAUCGUUUUAUUCCUAUUUAAUGUUAUUGACUAUAGCAGAUUUUGGAAAUCAGUGUUUUCCAUGUGACCCUCUUUCCUUGCAUCCCUAUUCCUUGUCCCCCACCCACUCUUCCCUGGAAUUCUCGGGUGCCAA: 2.53
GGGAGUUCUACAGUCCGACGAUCUCCUAAUAUUUAUAGCCAGCAGCUGUUACUUUGUUUGUAAAAUUUGCAAAAAAACAAAACCUGAAGUUGGUUUAUUGAAAGAAUUAUAAGGAUAGCUUCUAGGGAUAUUAUGGAAUUCUCGGGUGCCAA: 0.953

Series 3
Target: Phosphate system positive regulatory protein PHO4, full length, GST-tagged (PHO4, Saccharomyces cerevisiae, UniProt P07270, residues 1-312)
Method: competition protein-binding microarray
Molecule type: double-stranded DNA, one strand shown
Sample: in vitro
Concentration: 2 µM
Setting: whole 60-bp probe, lowest competitor level
Together with: Cbf1 competitor, 0.05 µM
Direction: higher = stronger binding
Measurement: fluorescence intensity
Target sequence (chain): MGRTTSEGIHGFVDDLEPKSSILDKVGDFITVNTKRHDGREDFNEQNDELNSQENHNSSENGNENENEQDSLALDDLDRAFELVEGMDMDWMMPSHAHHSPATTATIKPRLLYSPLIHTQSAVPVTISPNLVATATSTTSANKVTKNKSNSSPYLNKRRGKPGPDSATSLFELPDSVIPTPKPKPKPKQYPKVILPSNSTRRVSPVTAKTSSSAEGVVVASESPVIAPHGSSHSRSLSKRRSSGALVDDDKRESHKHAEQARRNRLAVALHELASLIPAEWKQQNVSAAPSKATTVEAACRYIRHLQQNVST
TGCGCAACAACTTGATCAGTGGGTGTATGTCTAGAAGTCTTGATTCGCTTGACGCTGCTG: 4670 a.u.
TATTGCGGTTGTTGCCACGCTTGTCGCCAGGGTTGTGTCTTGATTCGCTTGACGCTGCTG: 6110 a.u.
TTTCTTCCTCTTGACAGCGTGCAAAGCCATTGATAGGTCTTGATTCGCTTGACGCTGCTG: 7350 a.u.
AGACAGTACGATAGCGACGTGCCAGTGTTATTGATGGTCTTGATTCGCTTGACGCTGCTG: 7780 a.u.
GGCCACGGCACAAATATGATGTAGTACTAAGATTTTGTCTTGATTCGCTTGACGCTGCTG: 4420 a.u.
CTTTCCCGATCTTGTCACCCAACTTTAGCACATTTGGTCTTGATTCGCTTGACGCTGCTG: 3920 a.u.
CGTCCTAGTGATTTTCACGTGAGGTCCATGAGGAAGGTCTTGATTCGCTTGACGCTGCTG: 9360 a.u.
CTAACGAAGGTTTGTCACACCACTTACAAGCCAAGTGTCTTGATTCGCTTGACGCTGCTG: 4350 a.u.
GAAGATAGCCACCATCACGTGAAGGCCATCCCAAGAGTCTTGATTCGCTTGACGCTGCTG: 11200 a.u.
CGTCCTAGTGATTGGTGGGTGGGTGCCATGAGGAAGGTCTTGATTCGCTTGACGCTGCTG: 8290 a.u.
CCATCTGCAGGACATCACATGCAAGCACTTGAAGCTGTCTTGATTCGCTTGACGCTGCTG: 8220 a.u.
GTCCACACATTGTTCCACGTGTAGCTTACCCATGTAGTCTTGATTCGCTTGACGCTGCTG: 15700 a.u.
ATTTGAAAAATTGGCAATGTGATATTCGGTTAAGGAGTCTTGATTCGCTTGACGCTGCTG: 5440 a.u.
GGGAGACAGCGCGGCCACGTGACGGGCTTCCTCTTTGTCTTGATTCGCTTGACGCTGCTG: 13500 a.u.
CAGGCTGGTCGACCTCACGGGCGCTGATCGCGGCAAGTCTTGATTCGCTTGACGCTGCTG: 4230 a.u.
AAAGCGGTAATTTTTCACGTGGCTTCACATATCTATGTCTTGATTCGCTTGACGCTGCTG: 13300 a.u.
ACACAGATTGGCCATCACGCACCCATAATCATTTCTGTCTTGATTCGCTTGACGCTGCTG: 7290 a.u.
TGCGCAACAACTTGTTCTGTGGGTGTATGTCTAGAAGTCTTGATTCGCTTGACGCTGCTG: 4120 a.u.
TGCGCAACAACTTGCAAGGTGGGTGTATGTCTAGAAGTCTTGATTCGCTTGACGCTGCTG: 5130 a.u.

Series 4
Target: Interferon regulatory factor 3, full length, phosphomimetic (IRF3, Homo sapiens, UniProt Q14653, residues 1-427, S386D/S396D/S398D/S402D/T404D/S405D)
UniProt Q14653, sequence (whole entry, unmodified, looked up): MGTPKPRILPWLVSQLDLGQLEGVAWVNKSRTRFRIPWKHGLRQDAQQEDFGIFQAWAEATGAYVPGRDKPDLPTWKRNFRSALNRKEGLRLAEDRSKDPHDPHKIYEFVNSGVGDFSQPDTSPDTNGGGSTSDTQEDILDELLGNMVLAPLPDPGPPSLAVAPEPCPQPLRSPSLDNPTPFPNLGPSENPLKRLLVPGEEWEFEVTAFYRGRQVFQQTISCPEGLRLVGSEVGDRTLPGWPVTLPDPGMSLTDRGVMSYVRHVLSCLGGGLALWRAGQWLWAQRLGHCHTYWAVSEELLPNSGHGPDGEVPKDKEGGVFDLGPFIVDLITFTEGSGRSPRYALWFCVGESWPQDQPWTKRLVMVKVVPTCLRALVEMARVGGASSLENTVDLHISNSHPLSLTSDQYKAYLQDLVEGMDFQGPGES
Method: protein-binding microarray
Molecule type: double-stranded DNA, one strand shown
Sample: in vitro
Concentration: 2540 nM top
Setting: 60-bp whole probe
Together with: salmon DNA 0.4 mg/ml
Reference: random background probes
Direction: higher = stronger binding
Measurement: fitted relative affinity
Constant ends, left off below: GCCTAGCAC … GTCTTGATTCGCTTGACGCTGCTG
TTAGGTAGCGGACTGGGTTAGTGCTAG: -0.502 z-score
ATTGCTTTCTCTTTCACTACGTGCTAG: 3.98 z-score
GACGATCTTAGTTTCGAGACGTGCTAG: 2.5 z-score
TCACATTGCTTTCTCTTACTGTGCTAG: 1.61 z-score
TTAGAACTGGGGAGTGGATTAGTGCTA: -0.829 z-score
GACGGACTGGGGACCGGGGACGTGCTA: -0.853 z-score
GACGATCTCAGTTTCGAGGCGTGCTAG: 2.13 z-score
CACTCTCTGCTTGTATCTGGGTGCTAG: 1.55 z-score
GACGGTATCGACACGGGGGACGTGCTA: 0.606 z-score
CCCTATTTAAGGCTAGGCACGTGCTAG: 1.41 z-score
CCCTGCGTGGTCTCGAGCTGGTGCTAG: -0.678 z-score
TTTGATATCAGACTGGATTAGTGCTAG: 0.258 z-score
TCATATCTGGGTTCCCCACTGTGCTAG: 0.856 z-score
GATGAACTGGGGTATCGAGACGTGCTA: -0.716 z-score
TTAGGTATCGACTTTCGGTTTGTGCTA: 3.03 z-score
TTAGATATCGGGTTTCGATTGGTGCTA: 1.39 z-score
GAAGGTTTCCTTTCCCTGACGTGCTAG: 10.6 z-score
TTAGATATCAGTATCGGTTAGTGCTAG: 2.91 z-score
GACGGTCTCGGTATCGGCACGTGCTAG: 1.45 z-score

Excerpt of the above (series 2):
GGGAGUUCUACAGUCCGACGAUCUCUUGCCCCUCUGUAAAUCAAGCCAACUGUGACCAUCCAAUGUGCCAUCUUACAGGGAAAAGUUAUAACCACUAUUCCCCUAUAACAUAAUGCUAAUGAUUGUACUUAGUUGGAAUUCUCGGGUGCCAA: 0.266
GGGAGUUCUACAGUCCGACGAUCCGUCAGAAGGAAGCCAGUGUGACCACUAACUAAGAUGAAGACACAUGGAAAUGAUGGCACUGGAGGUGGAGGACCUUGCACGCAUACUCUUUGUGACCACAGGGUUGCAGUGGAAUUCUCGGGUGCCAA: 1.24
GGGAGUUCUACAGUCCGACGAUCGUCACAUGCAUUCUGUGGUGGCCAGCACUACGAAAUGCUACCUUCAAUAAACUGAACCUGCCACUCACUCAGCCUGCCUCUCCAUCCUCACGUGGCCCCGAGGGGAAGGGUGGAAUUCUCGGGUGCCAA: 0.628
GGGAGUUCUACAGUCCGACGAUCGUUUUAUUCCUAUUUAAUGUUAUUGACUAUAGCAGAUUUUGGAAAUCAGUGUUUUCCAUGUGACCCUCUUUCCUUGCAUCCCUAUUCCUUGUCCCCCACCCACUCUUCCCUGGAAUUCUCGGGUGCCAA: 2.53
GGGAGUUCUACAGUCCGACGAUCUCCUAAUAUUUAUAGCCAGCAGCUGUUACUUUGUUUGUAAAAUUUGCAAAAAAACAAAACCUGAAGUUGGUUUAUUGAAAGAAUUAUAAGGAUAGCUUCUAGGGAUAUUAUGGAAUUCUCGGGUGCCAA: 0.953
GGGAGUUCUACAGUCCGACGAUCUAAGGUUAGAAGCCUGAACCGUUACAAAAGAAGAGCUCACUAUGGUCAAAAAGUGAUGGCUUUCAGGACUUGUUUUUUAUCCUGCCUCACAGUUGUUAAAGUCUGUUCCAUGGAAUUCUCGGGUGCCAA: 0.377
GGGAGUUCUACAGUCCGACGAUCGGAGGGUUGUGGUUCCUGUCACCUGGGCUGAGGAGCCAGGAAGGCCUAAGCACUUCACUCACACACGCGAGUGGGCGAGUGCGUGUGCCUGUGCACACUUCACACACUGGUGGAAUUCUCGGGUGCCAA: 0.205
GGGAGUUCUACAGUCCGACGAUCAUUUCUGCUUCAGCCACCAAGCAGUUGUCUGUGUCCCUCAUCCAGAGGGGGCCUUGGCCACCAACAGUUCCAAACCAGGUCAGCUGUUAGCCGUCUCAUUGGCCAGUGGCUGGAAUUCUCGGGUGCCAA: 0.767
